Measured values pooled from the literature.
Parts stem from different laboratories: compare values within a part only.

Series 1
Target: RING finger protein unkempt homolog, zinc fingers 1-6, GST-SBP tag (UNK, Homo sapiens, UniProt Q9C0B0, residues 30-357)
Technique: RNA Bind-n-Seq
Molecule type: RNA
Matrix: in vitro
Tested at: not given
Setting: RNA with constant flanks, human and mouse sites, ends assumed
Reference: input RNA pool
Direction: higher = stronger binding
Target sequence (chain): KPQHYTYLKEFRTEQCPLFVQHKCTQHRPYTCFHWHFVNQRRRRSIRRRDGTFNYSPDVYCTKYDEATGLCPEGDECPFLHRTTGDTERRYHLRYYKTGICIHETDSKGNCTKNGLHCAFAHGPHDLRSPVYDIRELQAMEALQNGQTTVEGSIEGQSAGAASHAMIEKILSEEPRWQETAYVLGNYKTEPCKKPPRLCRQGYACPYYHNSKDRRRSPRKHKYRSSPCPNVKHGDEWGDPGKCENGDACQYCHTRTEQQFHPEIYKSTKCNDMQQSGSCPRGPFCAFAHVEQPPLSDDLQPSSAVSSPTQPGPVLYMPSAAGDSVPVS
| Oligonucleotide | bound/input enrichment [ratio] |
| --- | --- |
| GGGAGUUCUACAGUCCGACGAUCUGAGGUUGAUAUGUCAGACCUCUCCCCAGAGGAGCAGUGGAGGGUCGAACAUGCUCGAAUGCAUGCCAAACAUCGUGGCCACGAAGCCAUGCACGCUGAAAUGGUCCUCAUCCUCAUUGCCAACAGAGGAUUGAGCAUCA | 0.0523 |
| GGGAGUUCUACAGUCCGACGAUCCUUCCAUUUAUUGUUUCUCAUAGAUUGUCUAAUACCUUGAGCUUAGAUAUUCAUGAAAAUCAUAGUUUUGCACUUCUAGGGAAGAAGAAAUCAAGCAAUUUGACAUUACCACCCAAAUAUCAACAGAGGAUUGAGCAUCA | 0.698 |
| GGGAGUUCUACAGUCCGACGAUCUUUUUUUUUUAAUCAGUCAGAAAAAGGAUACUGGAACUUGUUGUAUGUAACAGCAUAUUAAACUGGAGGCAGUGAUAAAUCAGCUACACAGGUAAAUUGUGUUAAAAUAAUGUUUAAGAUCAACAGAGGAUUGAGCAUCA | 0.26 |
| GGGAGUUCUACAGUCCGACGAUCGCUCAGAGGGCCAUUAGUUCUGUUCCAGUUGGUAGACAACCCAUCAUCAUGCAGAGUACUAGCAAAUUUAACUUUACACCAGGGCGACCUGGAGUUCAGAAUGGUGGUGGUCAGUCUGAUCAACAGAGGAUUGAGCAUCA | 0.691 |
| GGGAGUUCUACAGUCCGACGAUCGAAGAAGCAUGCUUCACUCUCCAGUACUUAAACAAACUGUCCAUGAAACCAGAGCCUCUAUUUAGAAGUGUAGGCAAUACCAUUGAGCCUGUCAUCCUGUUCCAGAAGAUGGGAGUGGGCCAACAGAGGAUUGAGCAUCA | 0.297 |
| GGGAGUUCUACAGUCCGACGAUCCCUGAAUUCUUGGUCUAUUUUCCAUUGCUAAAUGAAAUGGCAAAGAAGUACAAUAUGAAACUAGUCUACAAAAAAACAUUUCUGGAAUUCUACGAAGAAAAGAUUAAGAACAAUGAAAAUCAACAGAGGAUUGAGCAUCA | 0.328 |
| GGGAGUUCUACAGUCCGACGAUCAAAUCCCCCUGCCUAUAUUAUAAUGGAUCAUGCGAUAUCAGUAUGGGAAGUGUAUGACAUGGUUUAAAAAGAACUCAUUAUGAAAAACAAAACAAAAAACAGAAUCAAAAAUAAAAUAAACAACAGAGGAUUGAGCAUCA | 0.304 |
| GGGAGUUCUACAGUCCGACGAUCUGUGGCUUUGGUGGGGUCUUAAGUUGUGGGCUGACACACACUGCUGUUGUUCCCCUGGACUUAGUAAAGUGCCGCAUGCAGGUGGACCCUCAGAAGUACAAAGGCAUAUUUAAUGGAUUCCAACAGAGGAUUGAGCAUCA | 0.0954 |

Series 2
Target: RNA binding protein fox-1 homolog 2, RRM domain, GST-SBP tag (RBFOX2, Homo sapiens, UniProt O43251-10, residues 100-194)
Technique: RNA Bind-n-Seq
Molecule type: RNA
Matrix: in vitro
Tested at: 365 nM
Setting: natural RNA segment, single round, ends assumed
Reference: no-protein control
Direction: higher = stronger binding
Target sequence (chain): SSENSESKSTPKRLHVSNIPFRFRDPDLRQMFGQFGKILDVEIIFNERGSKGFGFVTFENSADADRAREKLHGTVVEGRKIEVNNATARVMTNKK
| Oligonucleotide | RBNS enrichment (R) |
| --- | --- |
| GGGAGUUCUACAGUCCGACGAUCAAAAGUUACUUUAUUUAAAAGCAUUUAUUAAUCUUAGUCUGAAAUCAAAAUAUAGAUUAAUUGGCUCAGCUUUAAUACCUUUCUAGGAGGUGUCACAAUGUAGGGUACCAUGGAAUUCUCGGGUGCCAA | 0.595 |
| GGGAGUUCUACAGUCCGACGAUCAAGCAAAUCCCAUUUCUUGAAAAGCCUUGGAGAACUCGGUUUGGUAGACUUGGACAUCUCUCUGGCUUCUGAAGAGCCUGAAGCUGGCCUGGACCAUUCCUGUCCCUUUGUGGAAUUCUCGGGUGCCAA | 0.251 |
| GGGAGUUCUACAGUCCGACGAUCAUCACCUACCCUGUUAAAUGCUGUUUAAUCCCAAGGAUGUAAGUUGAGGUGAGGUGUCUUCUCUGUCUGCCCCAUUGCACUCAACUGAAUAGAAAUAUUUGGGUUUAGAGUGGAAUUCUCGGGUGCCAA | 0.323 |
| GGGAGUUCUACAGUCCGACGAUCUCUUCCCUGGGCAUGACUGAUGACAAUUUCCAUUUCAUCAGUUUGUUUUGUUUUCCUUUUUCUUUAAAUCUUGGACUUUAAACCCUACCUGUGUGAUUCAGUAGGGUUUGUGGAAUUCUCGGGUGCCAA | 0.664 |
| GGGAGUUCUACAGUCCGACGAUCGGGAGGAUCAUUUGUGCCCAGGUUGAGGCUAUAGUGAGCCAUGAUCAUACCACUGCACUCCAGCCUGGGUGACAGAGCGAGACCCUGUCUCAAAAAAAAAAAAGAAUUUGUGGAAUUCUCGGGUGCCAA | 0.595 |
| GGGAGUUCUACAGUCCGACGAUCCUGAGCUGGGUGGGAGGCCAUCCUGGCGACCACUGCCCAUUCCAUUCACCCCUCACUGUACCUGCCCUAGAACCUGGGCCUAGGCCACAGGGGCAGGGAGAAGAGAAGGCUGGAAUUCUCGGGUGCCAA | 0.17 |
| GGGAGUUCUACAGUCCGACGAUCAUUAUUUUAAUUAAUUUUUUUCAUAAUUGAGACAGAACUGUUUGUUAUGUACCAUAAUGCUAAAUAAAACUGUGGCACUUUUCACCAUAAUUUAAUUUAGUGGAAAAAGAUGGAAUUCUCGGGUGCCAA | 0.367 |
| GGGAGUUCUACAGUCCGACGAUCUACUUCUUGCUGAUCAUGCGUUGUGGGGGUGUGGGGGGACCCAUGCAGAGGAGGUUCUCUUCAUAAGGGGGACUCACAGAAGGACCUUCCAGUGAAUGUUUGACCUAGGGUGGAAUUCUCGGGUGCCAA | 0.447 |

Series 3
Target: Protein C-ets-1 (ETS1, Homo sapiens, UniProt P14921, residues 1-441, K379A, full length assumed)
Technique: protein-binding microarray
Molecule type: double-stranded DNA, one strand shown
Matrix: in vitro
Tested at: not given
Setting: k-mer, scored over probes, only values ≥0.25
Direction: higher = stronger binding
Target sequence (chain): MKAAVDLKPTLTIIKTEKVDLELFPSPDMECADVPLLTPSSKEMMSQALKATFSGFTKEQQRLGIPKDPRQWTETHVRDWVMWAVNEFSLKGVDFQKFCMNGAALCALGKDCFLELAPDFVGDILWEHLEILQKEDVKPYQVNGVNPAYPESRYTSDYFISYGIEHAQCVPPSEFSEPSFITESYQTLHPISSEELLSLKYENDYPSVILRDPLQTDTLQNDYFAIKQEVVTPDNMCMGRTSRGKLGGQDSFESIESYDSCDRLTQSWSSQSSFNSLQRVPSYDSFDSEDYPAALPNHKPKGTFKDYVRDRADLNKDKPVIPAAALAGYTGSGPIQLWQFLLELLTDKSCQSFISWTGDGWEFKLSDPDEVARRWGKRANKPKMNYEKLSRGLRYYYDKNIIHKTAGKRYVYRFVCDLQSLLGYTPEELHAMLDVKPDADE
| Oligonucleotide | E-score |
| --- | --- |
| ATACCGCC | 0.252 |
| ACCGGCGG | 0.415 |
| TACACCGA | 0.253 |
| GGAATGTA | 0.273 |
| CATACCGC | 0.252 |
| CCGGGATA | 0.313 |
| ACCGGGAG | 0.447 |
| AGAACGCG | 0.273 |
| CTTTTACC | 0.267 |
| CCGTCGGC | 0.315 |
| GAATCACA | 0.292 |
| AGTCAGAT | 0.266 |
| GAGCGGAA | 0.281 |
| CATTACGA | 0.276 |
| CGCAACCG | 0.322 |
| ACCGCCCC | 0.295 |
| ATGTCACA | 0.278 |
| ATTTCCGG | 0.474 |
| GACGTTGA | 0.283 |

Series 4
Target: Interferon regulatory factor 7, full length, phosphomimetic (IRF7, Homo sapiens, UniProt Q92985, residues 1-503, S471D/S472D/S475D/S476D/S477D/S483D/S484D/S487D)
Sequence of UniProt Q92985 (whole entry, unmodified, looked up): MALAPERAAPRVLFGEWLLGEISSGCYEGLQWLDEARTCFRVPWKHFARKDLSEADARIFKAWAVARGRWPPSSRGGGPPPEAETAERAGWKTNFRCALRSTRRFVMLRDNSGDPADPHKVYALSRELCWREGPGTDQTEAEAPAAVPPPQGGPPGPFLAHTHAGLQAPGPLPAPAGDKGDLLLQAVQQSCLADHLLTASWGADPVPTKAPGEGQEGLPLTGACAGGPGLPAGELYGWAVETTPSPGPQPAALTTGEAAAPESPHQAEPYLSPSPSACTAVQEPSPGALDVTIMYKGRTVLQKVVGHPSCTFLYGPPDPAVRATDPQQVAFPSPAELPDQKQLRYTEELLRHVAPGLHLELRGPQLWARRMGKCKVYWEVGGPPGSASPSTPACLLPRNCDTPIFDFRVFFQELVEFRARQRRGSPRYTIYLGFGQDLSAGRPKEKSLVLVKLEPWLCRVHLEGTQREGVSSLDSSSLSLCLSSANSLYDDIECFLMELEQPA
Technique: protein-binding microarray
Molecule type: double-stranded DNA, one strand shown
Matrix: in vitro
Tested at: 2200 nM top
Setting: 60-bp whole probe
Added: salmon DNA 0.4 mg/ml
Reference: random background probes
Direction: higher = stronger binding
All sequences stand within: GCCTAGCAC … GTCTTGATTCGCTTGACGCTGCTG
| Oligonucleotide | fitted relative affinity |
| --- | --- |
| TGGTCTTTCTGTTTTCTCCAGTGCTAG | 4.66 z-score |
| TCATTTCTCTATTGCTTACTGTGCTAG | 2.9 z-score |
| TTAGGACTGGGGTACCGGTTAGTGCTA | -0.889 z-score |
| GACGGACTGGGGTATCGGGAGGTGCTA | -0.596 z-score |
| TTCGGACTGGGTATCGGTTAGTGCTAG | 0.0678 z-score |
| TTAGAACTGAGTTTCGATGAGTGCTAG | 0.681 z-score |
| GACGGTATCGGACTCGGGACGTGCTAG | -0.18 z-score |
| GACGGTTTCGGACTGGGAACGTGCTAG | 3.6 z-score |
| TTATGTTTCGGACTGGGTTAGTGCTAG | 3.17 z-score |
| TCATGTTTGGGTCTTGTACTGTGCTAG | 1.35 z-score |
| TTAGAACTGAGTACCGATTAGTGCTAG | -0.255 z-score |
| GACGGGTTCGGGACTGGGGACGTGCTA | -0.273 z-score |
| CACGTTGCTCAAGGGCTTGAGTGCTAG | 0.737 z-score |
| TTAGGACTGGGTTTCGGTGAGTGCTAG | 0.661 z-score |
| TTAGATTTCGGTCTCGGTTAGTGCTAG | 3.57 z-score |
| TGTGTTTTCATTTTATGACAGTGCTAG | 4.65 z-score |
| TTTGGTTTCCTTCTCCTTTAGTGCTAG | 3.98 z-score |
| GACGATCTCAGACTGTAGACGTGCTAG | 0.124 z-score |
| TCAAACTTCTCCACTGAAACTGTGCTA | 0.197 z-score |

Repeated from above (series 1):
| Oligonucleotide | bound/input enrichment [ratio] |
| --- | --- |
| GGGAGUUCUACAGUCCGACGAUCCCUGAAUUCUUGGUCUAUUUUCCAUUGCUAAAUGAAAUGGCAAAGAAGUACAAUAUGAAACUAGUCUACAAAAAAACAUUUCUGGAAUUCUACGAAGAAAAGAUUAAGAACAAUGAAAAUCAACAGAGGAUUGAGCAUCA | 0.328 |
| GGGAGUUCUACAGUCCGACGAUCUGAGGUUGAUAUGUCAGACCUCUCCCCAGAGGAGCAGUGGAGGGUCGAACAUGCUCGAAUGCAUGCCAAACAUCGUGGCCACGAAGCCAUGCACGCUGAAAUGGUCCUCAUCCUCAUUGCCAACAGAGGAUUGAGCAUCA | 0.0523 |
| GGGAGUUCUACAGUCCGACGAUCGCUCAGAGGGCCAUUAGUUCUGUUCCAGUUGGUAGACAACCCAUCAUCAUGCAGAGUACUAGCAAAUUUAACUUUACACCAGGGCGACCUGGAGUUCAGAAUGGUGGUGGUCAGUCUGAUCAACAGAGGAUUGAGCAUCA | 0.691 |
| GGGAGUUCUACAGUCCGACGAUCUUUUUUUUUUAAUCAGUCAGAAAAAGGAUACUGGAACUUGUUGUAUGUAACAGCAUAUUAAACUGGAGGCAGUGAUAAAUCAGCUACACAGGUAAAUUGUGUUAAAAUAAUGUUUAAGAUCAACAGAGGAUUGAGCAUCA | 0.26 |
| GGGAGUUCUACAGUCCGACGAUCAAAUCCCCCUGCCUAUAUUAUAAUGGAUCAUGCGAUAUCAGUAUGGGAAGUGUAUGACAUGGUUUAAAAAGAACUCAUUAUGAAAAACAAAACAAAAAACAGAAUCAAAAAUAAAAUAAACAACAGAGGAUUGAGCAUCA | 0.304 |
| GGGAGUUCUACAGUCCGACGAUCUGUGGCUUUGGUGGGGUCUUAAGUUGUGGGCUGACACACACUGCUGUUGUUCCCCUGGACUUAGUAAAGUGCCGCAUGCAGGUGGACCCUCAGAAGUACAAAGGCAUAUUUAAUGGAUUCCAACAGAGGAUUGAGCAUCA | 0.0954 |
| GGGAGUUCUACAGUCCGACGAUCGAAGAAGCAUGCUUCACUCUCCAGUACUUAAACAAACUGUCCAUGAAACCAGAGCCUCUAUUUAGAAGUGUAGGCAAUACCAUUGAGCCUGUCAUCCUGUUCCAGAAGAUGGGAGUGGGCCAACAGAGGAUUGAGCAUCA | 0.297 |
| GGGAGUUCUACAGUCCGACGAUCCUUCCAUUUAUUGUUUCUCAUAGAUUGUCUAAUACCUUGAGCUUAGAUAUUCAUGAAAAUCAUAGUUUUGCACUUCUAGGGAAGAAGAAAUCAAGCAAUUUGACAUUACCACCCAAAUAUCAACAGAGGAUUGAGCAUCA | 0.698 |
